Published values gathered from unrelated publications.
Numbers after ± are the reported error.
B1: human transketolase; sequence looked up; chain MESYHKPDQQKLQALKDTANRLRISSIQATTAAGSGHPTSCCSAAEIMAVLFFHTMRYKSQDPRNPHNDRFVLSKGHAAPILYAVWAEAGFLAEAELLNLRKISSDLDGHPVPKQAFTDVATGSLGQGLGAACGMAYTGKYFDKASYRVYCLLGDGELSEGSVWEAMAFASIYKLDNLVAILDINRLGQSDPAPLQHQMDIYQKRCEAFGWHAIIVDGHSVEELCKAFGQAKHQPTAIIAKTFKGRGITGVEDKESWHGKPLPKNMAEQIIQEIYSQIQSKKKILATPPQEDAPSVDIANIRMPSLPSYKVGDKIATRKAYGQALAKLGHASDRIIALDGDTKNSTFSEIFKKEHPDRFIECYIAEQNMVSIAVGCATRNRTVPFCSTFAAFFTRAFDQIRMAAISESNINLCGSHCGVSIGEDGPSQMALEDLAMFRSVPTSTVFYPSDGVATEKAVELAANTKGICFIRTSRPENAIIYNNNEDFQVGQAKVVLKSKDDQVTVIGAGVTLHEALAAAELLKKEKINIRVLDPFTIKPLDRKLILDSARATKGRILTVEDHYYEGGIGEAVSSAVVGEPGITVTHLAVNRVPRSGKPAELLKMFGIDRDAIAQAVRGLITKA

| Substance | tested on | test | test system | setting | scale | measurement | result |
| --- | --- | --- | --- | --- | --- | --- | --- |
| B1 (human transketolase) | PP6C (human) | co-immunoprecipitation, IP-MS | CYB5R4 knockout cells | concentration not given | reference: CYB5R4 knockout over parental | log2 fold change | -0.6 |
| adrenomedullin |  | RP-HPLC | HALO Peptide ES-C18 column | 25 µM, acetic acid/methanol, 10 min gradient |  | retention time | 7.59 min |
| durvalumab |  |  | human, plasma | intravenous, 1500 mg, cycle 4 day 1, added: adavosertib 300 mg once daily |  | Cmax | 596 µg/mL |
| insulin icodec |  |  | Chinese type 2 diabetes patients, serum | subcutaneous, once-weekly geometric mean |  | dose-normalized Cmax at steady state | 91.6 (nmol/L)/(U/kg) |
| insulin |  | LC-MS/MS | human serum pool | low pool, two freeze-thaw cycles, added: C-peptide 1.55 ng/mL |  | concentration | 0.00036 µg/mL |
| human VDAC1 | PP6C (human) | co-immunoprecipitation, IP-MS | CYB5R4 knockout cells | concentration not given | reference: CYB5R4 knockout over parental | log2 fold change | 0.4 |
| Neuropeptide Y |  | RP-HPLC | HALO RP-amide column | 25 µM, acetic acid/acetonitrile, 25 min gradient |  | retention time | 9.97 min |
| insulin icodec |  |  | human moderate hepatic impairment, serum | subcutaneous, 1.5 U/kg single dose | reference: normal hepatic function | AUC(0-inf) increase | 15% |
| insulin degludec |  |  | human | subcutaneous, 0.4 IU/kg, 3 FC level, single dose, reference formulation |  | AUC0−12 | 111 ± 19 ng·h/mL |
| pegcetacoplan |  | measured: nervous system disorders | patients with PNH | dose not given, phase Ib trial |  | number of TEAEs | 17 |

A few entries again:
| Substance | tested on | test | test system | setting | scale | measurement | result |
| --- | --- | --- | --- | --- | --- | --- | --- |
| human VDAC1 | PP6C (human) | co-immunoprecipitation, IP-MS | CYB5R4 knockout cells | concentration not given | reference: CYB5R4 knockout over parental | log2 fold change | 0.4 |
